{"data": "Published values pooled from the literature", "CYP3A4": "Cytochrome P450 3A4 (CYP3A4, Homo sapiens, UniProt P08684)", "note": "Lines come from different studies, so protocols differ. Several values in a cell are separate wells, animals, samples, runs or records. ± gives the spread as reported.", "UniProt P08684, sequence (whole entry, looked up)": "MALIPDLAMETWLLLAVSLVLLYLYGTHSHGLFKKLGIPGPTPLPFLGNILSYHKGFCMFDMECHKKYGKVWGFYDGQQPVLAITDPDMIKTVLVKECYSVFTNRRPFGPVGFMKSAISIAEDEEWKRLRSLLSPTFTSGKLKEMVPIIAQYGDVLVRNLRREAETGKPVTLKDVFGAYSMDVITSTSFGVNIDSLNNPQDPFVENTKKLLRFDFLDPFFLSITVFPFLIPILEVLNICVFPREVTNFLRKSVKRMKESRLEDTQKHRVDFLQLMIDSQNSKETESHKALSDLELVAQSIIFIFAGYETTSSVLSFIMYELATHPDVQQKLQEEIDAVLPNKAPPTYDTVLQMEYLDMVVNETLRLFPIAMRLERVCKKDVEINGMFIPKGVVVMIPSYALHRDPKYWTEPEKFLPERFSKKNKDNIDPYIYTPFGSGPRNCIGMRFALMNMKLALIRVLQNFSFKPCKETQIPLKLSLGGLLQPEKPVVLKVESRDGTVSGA", "UniProt Q16873, sequence (whole entry, looked up)": "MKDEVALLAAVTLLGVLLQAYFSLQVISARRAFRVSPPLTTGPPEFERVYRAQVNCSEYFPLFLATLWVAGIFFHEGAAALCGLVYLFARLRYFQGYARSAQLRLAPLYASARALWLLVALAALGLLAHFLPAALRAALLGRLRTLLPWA", "UniProt P49589, sequence (whole entry, looked up)": "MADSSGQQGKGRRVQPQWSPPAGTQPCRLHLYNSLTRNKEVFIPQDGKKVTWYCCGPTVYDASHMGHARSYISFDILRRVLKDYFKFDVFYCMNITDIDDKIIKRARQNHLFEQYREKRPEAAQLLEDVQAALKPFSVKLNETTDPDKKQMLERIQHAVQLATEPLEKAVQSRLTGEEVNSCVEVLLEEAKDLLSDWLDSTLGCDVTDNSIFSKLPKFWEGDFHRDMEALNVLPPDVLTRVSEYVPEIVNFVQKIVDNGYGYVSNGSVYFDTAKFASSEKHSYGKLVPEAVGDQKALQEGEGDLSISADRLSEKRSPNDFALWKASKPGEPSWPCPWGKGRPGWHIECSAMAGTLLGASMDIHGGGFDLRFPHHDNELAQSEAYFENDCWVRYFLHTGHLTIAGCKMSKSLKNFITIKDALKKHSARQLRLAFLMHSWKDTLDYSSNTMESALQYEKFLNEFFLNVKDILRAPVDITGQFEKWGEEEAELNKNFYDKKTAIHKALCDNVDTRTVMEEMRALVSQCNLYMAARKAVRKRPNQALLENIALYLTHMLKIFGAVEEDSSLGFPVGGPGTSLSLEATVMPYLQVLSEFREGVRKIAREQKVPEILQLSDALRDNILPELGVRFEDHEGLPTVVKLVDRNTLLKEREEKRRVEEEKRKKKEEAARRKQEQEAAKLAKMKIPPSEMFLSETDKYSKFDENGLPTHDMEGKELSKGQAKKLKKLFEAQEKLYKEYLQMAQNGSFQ"}
{"Structure (SMILES)": "COc1cccc(-c2n[nH]c(SCc3ccccn3)n2)c1OC", "target or system": "Salmonella typhimurium", "test": "Ames test, preincubation", "system": "TA1535", "setting": "0.25 mg/plate, without S9", "quantity": "revertant colonies per plate", "value": 16}
{"Structure (SMILES)": "CC(C)C[C@@H]1NC(=O)[C@H](CC(C)C)NC(=O)[C@H](Cc2c[nH]c3ccccc23)NC(=O)[C@H](CO)NC(=O)[C@H](Cc2c[nH]c3ccccc23)NC(=O)[C@@H]2CCCN2C(=O)[C@H](CC(C)C)NC(=O)[C@H](Cc2c[nH]cn2)NC(=O)[C@@H]2CCCN2C(=O)[C@H](CC(N)=O)NC(=O)[C@H](C)NC(=O)[C@H](Cc2ccc(O)cc2)NC(=O)[C@H](CS)NC(=O)[C@H](CCCCNC(=O)CN2CCN(CC(=O)O)CCN(CC(=O)O)CCN(CC(=O)O)CC2)NC1=O [lutetium-177 labelled]", "test": "OLINDA dosimetry", "system": "BALB/c mice, intestine", "setting": "37 MBq, 7 days", "quantity": "total nuclear transformations", "value": "318 MBq-s"}
{"Structure (SMILES)": "O=C(C1CCCCC1)N1CCN(S(=O)(=O)c2cccc3cnccc23)CC1", "target or system": "Caco-2/TC-7 monolayers", "test": "permeability", "setting": "20 µM, 120 min", "quantity": "recovery", "value": "87%"}
{"Structure (SMILES)": "COc1cc(Nc2ncc(F)c(Nc3ccc4c(n3)NC(=O)C(C)(C)O4)n2)cc(OC)c1OC", "target or system": "LTC4S (Homo sapiens, UniProt Q16873)", "quantity": "IC50", "value": "> 10 µM"}
{"Structure (SMILES)": "Cc1ncc2n1-c1ccc(Cl)cc1C(c1ccccc1F)=NC2", "target or system": "CYP3A4", "system": "human, plasma", "setting": "oral, 2 mg, day 1, alone, geometric mean", "quantity": "half-life", "value": "2.95 h"}
{"Structure (SMILES)": "O=c1ccc2ccccc2o1", "target or system": "NHEK", "test": "AhR translocation", "setting": "concentration not given, 24 h", "quantity": "chance response", "value": "0%"}
{"Structure (SMILES)": "Cc1ncc(OC[C@@]2(c3cccc(F)c3)C[C@H]2C(=O)Nc2ccc(F)cn2)c(C)n1", "target or system": "MDCK", "setting": "1 µM, 90 min, pH 6.5 apical, 7.4 basolateral, apical to basolateral", "quantity": "mass recovery", "value": "103 ± 7%"}
{"Structure (SMILES)": "O=C1c2c(O)c(=O)ccn2N([C@@H]2c3ccccc3SCc3c2ccc(F)c3F)[C@@H]2COCCN12", "system": "BALB/c mice, plasma", "setting": "oral, 0.5 mg/kg baloxavir marboxil, 8 h", "quantity": "plasma concentration", "value": "1.12 ng/mL"}
{"Structure (SMILES)": "CC(C)CC(=O)OC[C@H]1O[C@@](C#N)(c2ccc3c(N)ncnn23)[C@H](O)[C@@H]1O", "target or system": "CYP3A4", "test": "metabolic stability", "system": "recombinant enzyme", "setting": "1 µM, 30 min", "quantity": "remaining compound", "value": "1.99 ± 0.161%"}
{"Structure (SMILES)": "O=[N+]([O-])c1ccc(N2CCC(NCCC(O)c3ccc(F)c4ccccc34)CC2)c(C(F)(F)F)c1 (stereo not shown)", "target or system": "Salmonella typhimurium", "test": "SOS/umu test", "system": "TA1535/pSK1002", "setting": "0.004 mg/mL, 4 h, with S9, full range", "quantity": "survival", "value": "102%"}
{"Structure (SMILES)": "COc1ccc2c(c1)[C@]13CCCC[C@@H]1[C@H](C2)N(C)CC3", "system": "C57BL/6 mice, plasma", "setting": "oral, 50 µg/g, 300 min", "quantity": "plasma concentration", "value": "0 ng/mL"}
{"Structure (SMILES)": "CC[C@H](C)[C@H](NC(=O)[C@H](Cc1ccccc1)NC(=O)[C@H](CCC(=O)O)NC(=O)[C@H](CCCNC(=N)N)NC(=O)[C@H](C)NC(=O)[C@H](C)NC(=O)[C@H](CCC(N)=O)NC(=O)[C@H](CCC(=O)O)NC(=O)[C@H](CCC(=O)O)NC(=O)[C@H](CC(C)C)NC(=O)[C@H](Cc1ccc(O)cc1)NC(=O)[C@H](CO)NC(=O)[C@H](CO)NC(=O)[C@@H](NC(=O)[C@H](CC(=O)O)NC(=O)[C@H](CO)NC(=O)[C@@H](NC(=O)[C@H](Cc1ccccc1)NC(=O)[C@@H](NC(=O)CNC(=O)[C@H](CCC(=O)O)NC(=O)[C@H](C)NC(=O)CCc1c[nH]cn1)[C@@H](C)O)[C@@H](C)O)C(C)C)C(=O)N[C@@H](C)C(=O)N[C@@H](Cc1c[nH]c2ccccc12)C(=O)N[C@@H](CC(C)C)C(=O)N[C@H](C(=O)N[C@@H](CCCNC(=N)N)C(=O)NCC(=O)N[C@@H](CCCNC(=N)N)C(=O)N[C@@H](CCCCNC(=O)COCCOCCNC(=O)COCCOCCNC(=O)CC[C@H](NC(=O)CCCCCCCCCCCCCCCCC(=O)O)C(=O)O)C(=O)NCC(=O)NCC(=O)N[C@@H](CO)C(=O)N[C@@H](CCCCNc1c(NCCCCCN(O)C(=O)CCC(=O)NCCCCCN(O)C(=O)CCC(=O)NCCCCCN(O)C(C)=O)c(=O)c1=O)C(=O)O)C(C)C [zirconium-89 labelled]", "test": "gamma counting", "system": "rat, skin of neck", "setting": "subcutaneous, 3 nmol/kg, 4 h", "quantity": "tissue uptake", "value": "0.17 %ID/g"}
{"Structure (SMILES)": "CO[C@H]1C[C@@H]2CC[C@@H](C)[C@@](O)(O2)C(=O)C(=O)N2CCCC[C@H]2C(=O)O[C@H]([C@H](C)C[C@@H]2CC[C@@H](OC(=O)NCCOCCOCCOCCOCCOCCOCCOCCOCCC(=O)N3CCc4cc(Cn5nc(-c6ccc7oc(N)nc7c6)c6c(N)ncnc65)ccc4C3)[C@H](OC)C2)C[C@@H](O)[C@H](C)/C=C(\\C)[C@@H](O)[C@@H](OC)C(=O)[C@H](C)C[C@H](C)/C=C/C=C/C=C/1C", "test": "phase 1 dose escalation, refers to: rash", "system": "advanced solid tumour patients", "setting": "intravenous, 16 mg weekly, grade ≥3", "quantity": "TRAE incidence", "value": "0%"}
{"Structure (SMILES)": "C[C@H]1CN(c2n[nH]c3nc(N[C@H]4CC[C@H](NS(=O)(=O)CCC(F)(F)F)CC4)ncc23)CCO1", "target or system": "Cysteine--tRNA ligase, cytoplasmic (Homo sapiens, UniProt P49589)", "test": "Kinobeads competition, refers to: CARS", "setting": "0.8 µM, unit not given", "how to read": "reference: vehicle", "quantity": "remaining binding", "value": 1.44}
{"Structure (SMILES)": "COc1c(CCC[P+](c2ccccc2)(c2ccccc2)c2ccccc2)cc2c(c1OC)OCO2.[I-]", "target or system": "SK-MEL-5", "test": "SRB", "quantity": "LC50", "value": "-5.23 log M"}
{"Structure (SMILES)": "C[C@]1(CO)Cc2ncn(-c3ccc(C#N)c(Cl)c3)c2C(=O)O1", "system": "human, Chinese", "setting": "3 mg single dose", "quantity": "subjects with any TEAE", "value": "16.7%"}
{"Structure (SMILES)": "COc1ncnn2ccc(-c3cnc4nc(C)n(Cc5nnc([C@@H](C)F)o5)c4c3)c12", "system": "human patients", "setting": "oral, dose not given, grade 1 adverse drug reaction", "quantity": "incidence of TLS", "value": "7.1%"}
{"Structure (SMILES)": "COc1ccc(N2C(=O)N(c3c(C)cccc3Cl)Cc3cnc(Nc4ccc(C5CCN(C)CC5)cc4OC)nc32)nc1", "target or system": "DYRK1A (Homo sapiens, UniProt Q13627)", "test": "kinase activity", "setting": "0.5 µM", "quantity": "inhibition", "value": "5.46%"}
{"Structure (SMILES)": "O=C(Nc1cnccc1Cl)N1CCN(Cc2ccc3c(c2)OC(F)(F)O3)CC1", "target or system": "COS cells expressing human FAAH", "system": "cell lysate", "setting": "100 nM, 3 h, quantification limit 5 nM", "quantity": "compound concentration", "value": "not detected"}
{"Structure (SMILES)": "C[C@@H](O)[C@H](NC(=O)[C@@H]1CSSC[C@H](NC(=O)[C@@H](Cc2ccccc2)NC(=O)CN2CCN(CC(=O)[O-])CCN(CC(=O)[O-])CCN(CC(=O)[O-])CC2)C(=O)N[C@@H](Cc2ccc(O)cc2)C(=O)N[C@H](Cc2c[nH]c3ccccc23)C(=O)N[C@@H](CCCCN)C(=O)N[C@@H]([C@@H](C)O)C(=O)N1)C(=O)O.[177Lu+3]", "target or system": "MEC1 treated with 200 µM zebularine", "test": "gamma counter", "system": "serum-free RPMI", "setting": "30 min, 37 °C", "quantity": "uptake", "value": "0.554%"}
{"Structure (SMILES)": "CNC(=O)c1c(N(C)N=O)ncn1C", "target or system": "Escherichia coli", "test": "plate incorporation", "system": "WP2uvrA pKM101, water", "setting": "1500 µg/plate, without S9", "quantity": "revertant colonies per plate", "value": "105 ± 7"}
{"Structure (SMILES)": "CN1CC[C@@H](c2c(O)cc(O)c3c(=O)cc(-c4ccc(C(F)(F)F)cc4Cl)oc23)[C@@H]1CO", "test": "refers to: Pneumonia", "system": "relapsed B-cell malignancies or AML", "setting": "oral, 50 mg, grade 3-4, continuous dosing", "quantity": "patients with adverse event", "value": "0%"}
{"Structure (SMILES)": "CN(CC(C)(C)C)N=O", "target or system": "Escherichia coli", "test": "plate incorporation", "system": "WP2uvrA pKM101, methanol", "setting": "500 µg/plate, without S9", "quantity": "revertant colonies per plate", "value": "114 and 131"}
{"Structure (SMILES)": "C[C@@H](O)[C@@H](CO)NC(=O)[C@@H](CCCNC(=N)N)NC(=O)[C@@H]1CCCN1C(=O)[C@@H]1CSSC[C@H](NC(=O)[C@H](Cc2ccccc2)NC(=O)CN2CCN(CC(=O)O)CCN(CC(=O)O)CCN(CC(=O)O)CC2)C(=O)N[C@@H](Cc2ccc(O)cc2)C(=O)N[C@@H](Cc2ccccc2)C(=O)N[C@@H](CCC(N)=O)C(=O)N[C@@H](CC(N)=O)C(=O)N1 [gallium-68 labelled]", "system": "healthy Wistar rat, blood", "setting": "intravenous, 8 MBq, 120 min, individual animals", "quantity": "tissue uptake", "value": "0.14 %ID/g"}
{"Structure (SMILES)": "CC(c1ccccc1)(c1ccc(O)cc1)c1ccc(O)cc1", "target or system": "HepG2 spheroids", "test": "annexin V-FITC/PI flow cytometry", "setting": "1 µM, 24 h", "quantity": "necrotic cells", "value": "7.54 ± 2.51%"}
{"Structure (SMILES)": "COCCN(CCOC)N=O", "target or system": "Salmonella typhimurium", "test": "mutagenicity, Ames plate incorporation", "system": "TA100", "setting": "2500 µg/plate, 3 d, without S9, methanol", "quantity": "revertant colonies per plate", "value": "146 ± 16"}
{"Structure (SMILES)": "COc1cc2c(Oc3ccc4[nH]c(C)cc4c3F)ccnc2cc1OCC1(N)CC1", "test": "refers to: grade 1 or 2 abdominal pain", "system": "paediatric high-risk refractory sarcoma", "setting": "8 mg", "quantity": "incidence of adverse event", "value": "40%"}
{"Structure (SMILES)": "Cc1cc(C(=O)NC(C)(C)COc2cccc3c2C(N)=NS(=O)(=O)N3)cc(C)n1", "target or system": "Salmonella typhimurium", "test": "Ames test, initial", "system": "TA1535", "setting": "500 µg/plate", "how to read": "reference: solvent control", "quantity": "revertant ratio", "value": 1.4}
{"Structure (SMILES)": "CCOc1ccc(-c2nc3ccc(-c4nc5ccc(N6CCN(C)CC6)cc5[nH]4)cc3[nH]2)cc1", "target or system": "Albumin (ALB, Homo sapiens, UniProt P02768)", "test": "binding, second site, fluorescence titration", "system": "PBS", "quantity": "Kd", "value": "> 1000 µM"}
{"Structure (SMILES)": "CC[C@H](C)[C@@H]1NC(=O)[C@@H]2CCCN2C(=O)[C@H](CC(C)C)NC(=O)[C@H](CC(C)C)NC(=O)CNC(=O)[C@@H](NC(=O)[C@@H](NC(=O)[C@H](CC(=O)O)NC(=O)CNC(=O)[C@@H](NC(=O)[C@H](C)NC(=O)CNC(=O)[C@H](CCCCN)NC(=O)[C@H](CC(C)C)NC(=O)[C@H](CC(C)C)NC(=O)[C@H](CCCCN)NC(=O)CNC(=O)[C@@H](NC(=O)[C@@H](N)CC(C)C)C(C)C)C(C)C)C(C)C)CSSC[C@@H](C(=O)O)NC1=O", "test": "RNA-seq, refers to: Sesn2", "system": "mouse, traumatic brain injury model, frontal cortex and hippocampus", "setting": "dose not given", "how to read": "reference: TBI alone", "quantity": "log2 fold change", "value": -1.02}
{"Structure (SMILES)": "COc1cc(CCC[P+](c2ccccc2)(c2ccccc2)c2ccccc2)c(OC)c2c1OCO2.[I-]", "target or system": "HCT-116", "test": "SRB", "quantity": "LC50", "value": "> -4 log M"}
{"note": "Repeated from above:"}
{"Structure (SMILES)": "Cc1ncc(OC[C@@]2(c3cccc(F)c3)C[C@H]2C(=O)Nc2ccc(F)cn2)c(C)n1", "target or system": "MDCK", "setting": "1 µM, 90 min, pH 6.5 apical, 7.4 basolateral, apical to basolateral", "quantity": "mass recovery", "value": "103 ± 7%"}
{"Structure (SMILES)": "O=C1c2c(O)c(=O)ccn2N([C@@H]2c3ccccc3SCc3c2ccc(F)c3F)[C@@H]2COCCN12", "system": "BALB/c mice, plasma", "setting": "oral, 0.5 mg/kg baloxavir marboxil, 8 h", "quantity": "plasma concentration", "value": "1.12 ng/mL"}
